Experimental data gathered from unrelated publications.
Each line is one published result; not all experiments were run side by side. ± gives the spread as reported. In brackets after ≈: the same amount, converted by molar mass.

`CC(C)C[C@H](NC(=O)[C@H](CCCNC(=N)N)NC(=O)[C@@H](Cc1ccccc1)NC(=O)CN)C(=O)N[C@@H](CC(N)=O)C(=O)N[C@@H](CO)C(=O)N[C@@H](C)C(=O)N[C@@H](CO)C(=O)N[C@@H](CCCNC(=N)N)C(=O)N[C@H](C(=O)N[C@@H](C)C(=O)N[C@@H](Cc1c[nH]cn1)C(=O)NCC(=O)N[C@@H](Cc1ccc(O)cc1)C(N)=O)C(C)C` gave a potency ratio of ~200 fold (ATRP receptor 2 (Aplysia californica); IP1 accumulation, agonist; baseline: compound over all-L-ATRP).
`COC[C@@H](NC(C)=O)C(=O)NCc1ccc(N=[N+]=[N-])cc1` gave a slow-inactivated channels of ~45% (voltage-gated sodium channel; inhibitor, whole-cell patch clamp; CAD; 40 µM, holding potential -50 mV, added: UV irradiation 312 nm 5 min).
`O=C1CC(=O)N(c2ccccc2)c2cc(Cl)ccc2N1`: heat hyperalgesia “decreased” (Hargreaves test; wild-type mouse, CCI neuropathy; oral, 3, 10 or 30 mg/kg, 7 to 14 days after CCI).
`N=C(N)NCCCC(N)C(=O)NC[C@@H]1O[C@H](O[C@H]2[C@@H](O)[C@H](O[C@@H]3[C@@H](O)[C@H](NC(=O)C(N)CCCNC(=N)N)C[C@H](N)[C@H]3O[C@H]3O[C@H](CNC(=O)C(N)CCCNC(=N)N)[C@@H](O)[C@H](O)[C@H]3NC(=O)C(N)CCCNC(=N)N)O[C@@H]2CO)[C@H](NC(=O)C(N)CCCNC(=N)N)[C@@H](O)[C@@H]1O` (stereo partly shown) has an IC50 of ~0.5 µM (RNase P holoenzyme Escherichia coli; 37 °C, added: 10 mM Mg2+).
The EC50 of `N=C(N)N1CC23C4C=CC5C4C4C2C=CC4C53C1` is reported as > 100 µM (Influenza A virus; viral replication; MDCK, H1N1 A/PR/8/34).
`CCN(Cc1ccccc1)C(=O)CCc1nc(CN2CCN(C(=O)Cc3ccc(OC)c(OC)c3)CC2)no1` has a rheobase of 443 ± 36.9 pA (current clamp; L4-L6 DRG neurons, rat CCI model; 10 µM).
`CCN(CC)CC#CCOC(=O)[C@]1(C)CCC[C@]2(C)c3ccc(C(C)C)cc3CC[C@@H]12` has an IC50 of 21 µM (Influenza A virus; viral replication; MDCK, A/Puerto Rico/8/34 (H1N1)).
`CCCCCCCCC(=O)NCc1ccc(O)c(OC)c1` gave an IC50 of > 4 µg/mL (mouse mAb 1-F12; antibody binding, indirect competitive ELISA; added: coating antigen 3-OVA).
Under “Clcn1 exon 7 splicing”, `N=C(N)Nc1ccc(-c2nc3ccc(-c4ccc5nc(-c6ccc(NC(=N)N)cc6)[nH]c5c4)cc3[nH]2)cc1` is recorded as “no effect” (FVB mouse, wild type; intraperitoneal, 40 mg/kg, 7 days).
For `C[C@@](O)(C(F)F)[C@H](NC(=O)c1ccc(C#CC#CC2CC2)cc1)C(=O)NO`, the MIC50 was 0.032 µg/mL (≈ 0.085 µM) (Citrobacter koseri; agar dilution; clinical isolates).
`COCO[C@H]1[C@H](O)[C@@H](N)[C@@H](O[C@H]2[C@H](O[C@@H]3O[C@H](CO)[C@@H](O[C@H]4O[C@@H](CN)[C@@H](O)[C@H](O)[C@H]4N)[C@H]3O)[C@@H](O)[C@H](N)C[C@@H]2N)O[C@@H]1CO` has an IC50 of 0.2 ± 0.03 µg/mL (Mycobacterium smegmatis ribosome wild type; translation, cell-free luciferase synthesis).
The intraocular pressure of `CCCCCc1cc(O)c2c(c1)OC(C)(C)C1CCC(C)=CC21` (stereo not shown) is reported as 83.7% (rabbit, α-chymotrypsin glaucoma model; topical, 50 µL of 0.8% w/v, 1.5 h; baseline: baseline).
`COC(=O)c1ccccc1NC(=O)Cc1cn(OC)c2ccccc12`: “EC50 fold change” 2.14 ± 0.29 fold (HIV-1 reverse transcriptase L100I/K103N; viral replication; VSV-G pseudotyped virus; baseline: wild type).
`C=CCn1cnc2c(NCc3ccc(C)s3)nc(N[C@H](CC)CO)nc21`: “tail current integral” > 70% (Cav2.1 calcium channel; perforated patch clamp; HEK293 transfected; 50 µM, 100 ms before depolarisation, holding -100 mV; baseline: maximum).
`c1csc(CNCC23C4CCC5C4C4C(CCC42)C53)c1` has an EC50 of > 100 µM (Influenza A virus; viral replication; MDCK, H1N1 A/PR/8/34).
The inhibition of `CSCC[C@@H]1NC(=O)[C@H](CCCNC(=N)N)NC(=O)[C@H](Cc2ccc(O)cc2)NC(=O)[C@@H](NC(=O)[C@H](CCCNC(=N)N)NC(=O)[C@H](CCCCN)NC(=O)[C@H](CC(=O)O)NC(=O)[C@H](C)N)CSSC[C@@H](C(=O)N[C@@H](CCCNC(=N)N)C(=O)N[C@@H](Cc2ccc(O)cc2)C(=O)NCC(=O)O)NC(=O)CNC(=O)[C@H](CCCCN)NC(=O)[C@H](CCCCN)NC(=O)[C@@H]2CSSC[C@H](NC1=O)C(=O)N[C@@H](CCC(N)=O)C(=O)N[C@@H](CCCNC(=N)N)C(=O)N[C@@H](Cc1ccc(O)cc1)C(=O)N[C@@H](Cc1c[nH]cn1)C(=O)N[C@@H](CCC(N)=O)C(=O)N[C@@H](CCCNC(=N)N)C(=O)N[C@@H](CCCNC(=N)N)C(=O)N[C@@H](CCC(N)=O)C(=O)N[C@@H](CCCNC(=N)N)C(=O)N[C@@H](CCCNC(=N)N)C(=O)N[C@@H](CCC(N)=O)C(=O)N2` is reported as 50.1 ± 0.8% (Kv1.2 (human); ion current, inhibitor; concentration not given, pH 7.4).
With `C1CC2C3C4C5CCC4C24CNCC54C13` the EC50 was 50 µM (Influenza A virus; viral replication; MDCK, A/Ned/378/05 (H1N1)).
With `CCCCCc1cc(OC(=O)C(NC(=O)CCC(=O)O)C(C)C)c2c(c1)OC(C)(C)C1CCC(C)=CC21` (stereo not shown) the intraocular pressure was 54% (rabbit, α-chymotrypsin-induced glaucoma; concentration not given, 2 h; baseline: baseline).
`CC(=N)NCC12C3CCC4C3C3C(CCC31)C42` has an EC50 of > 100 µM (Influenza A virus; viral replication; MDCK, H3N2 A/HK/7/87).
`O=C(O)CC[C@H](NC(=O)N[C@@H](CCCCNC(=O)[C@H](Cc1ccc2ccccc2c1)NC(=O)[C@H]1CC[C@H](CNC(=O)CN2CCN(CC(=O)O)CCN(C(CCC(=O)NCCC[P+](c3ccccc3)(c3ccccc3)c3ccccc3)C(=O)O)CCN(CC(=O)O)CC2)CC1)C(=O)O)C(=O)O` (stereo partly shown) [terbium-161 labelled] has a surface-bound activity of 62.7% (PC-3 PIP (PSMA+); concentration not given).
For `C1C2C1C1C3C4C5C6CC6C4C14CNCC54C23` (stereo not shown), the EC50 was > 100 µM (Influenza A virus; viral replication; MDCK, H3N2 A/HK/7/87).
For `CC[C@H](C)[C@H](NC(=O)[C@@H](NC(=O)[C@H](CC(=O)O)NC(C)=O)[C@@H](C)O)C(=O)N[C@@H](CCCNC(=N)N)C(=O)N[C@@H](CC(C)C)C(=O)N[C@@H](CC(C)C)C(=O)N[C@@H](Cc1ccccc1)C(=O)N[C@@H](CCC(N)=O)C(=O)N[C@@H](CC(C)C)C(=O)N[C@@H](CCSC)C(=O)N[C@@H](CCCNC(=N)N)C(=O)N1CCC[C@H]1C(=O)N1CCC[C@H]1C(=O)N[C@@H](CC(N)=O)C(=O)N[C@@H](CCSC)C(=O)N[C@H](C(=O)N1CCC[C@H]1C(=O)N[C@@H](C)C(=O)N[C@H](C(=O)N[C@@H](CC(N)=O)C(=O)N[C@@H](C)C(N)=O)C(C)C)[C@@H](C)O`, “enrichment of specific T cells” read ~10 (measured: CCR9; PBMC CD4 T cells, DRB1*0101 healthy adults; dose not given, unit not given; baseline: CCR9+ over total non-specific T cells).
`C1CCN(CC23C4CCC5C4C4C(CCC42)C53)CC1` has an EC50 of > 100 µM (Influenza A virus; viral replication; MDCK, H1N1 A/PR/8/34).
For `Cc1ccccc1N1C(=O)/C(=C/c2ccc(OCc3cccc(C(=O)O)c3)cc2)C(=O)NC1=S`, “T cell activation threshold shift” read ~0.5 log units anti-CD3 (LYP (PTPN22), human; NFAT-AP1 reporter gene, inhibitor; Jurkat TAg; 5 µM, added: anti-CD3 (OKT3); baseline: untreated cells).
With `CC/C=C\C/C=C\C/C=C\C/C=C\C/C=C\C/C=C\CCC(=O)Nc1ccn(C2OC(CO)C(O)C2(F)F)c(=O)n1` (stereo not shown) the CC50 was 51.9 µM (A498; NCI60 screen).

Repeated from above:
For `Cc1ccccc1N1C(=O)/C(=C/c2ccc(OCc3cccc(C(=O)O)c3)cc2)C(=O)NC1=S`, “T cell activation threshold shift” read ~0.5 log units anti-CD3 (LYP (PTPN22), human; NFAT-AP1 reporter gene, inhibitor; Jurkat TAg; 5 µM, added: anti-CD3 (OKT3); baseline: untreated cells).
`CCN(Cc1ccccc1)C(=O)CCc1nc(CN2CCN(C(=O)Cc3ccc(OC)c(OC)c3)CC2)no1` has a rheobase of 443 ± 36.9 pA (current clamp; L4-L6 DRG neurons, rat CCI model; 10 µM).
